Published values pooled from the literature.
Lines come from different studies, so protocols differ.
Sequence of UniProt P33261 (whole entry, looked up): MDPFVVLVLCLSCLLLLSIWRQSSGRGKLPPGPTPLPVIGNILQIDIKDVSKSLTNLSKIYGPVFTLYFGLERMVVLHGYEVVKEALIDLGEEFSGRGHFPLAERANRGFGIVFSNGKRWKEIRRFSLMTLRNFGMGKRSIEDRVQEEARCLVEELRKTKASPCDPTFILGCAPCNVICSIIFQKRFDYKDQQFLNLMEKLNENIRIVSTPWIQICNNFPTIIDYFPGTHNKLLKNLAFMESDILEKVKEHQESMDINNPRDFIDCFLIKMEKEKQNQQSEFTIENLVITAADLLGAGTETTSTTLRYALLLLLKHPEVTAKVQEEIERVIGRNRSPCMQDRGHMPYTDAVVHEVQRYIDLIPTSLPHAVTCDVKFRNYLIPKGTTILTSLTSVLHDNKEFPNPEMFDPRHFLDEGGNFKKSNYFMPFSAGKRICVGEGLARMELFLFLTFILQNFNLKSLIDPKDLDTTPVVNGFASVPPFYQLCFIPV

| Compound | tested on | assay | system | setting | how to read | endpoint | value |
| --- | --- | --- | --- | --- | --- | --- | --- |
| COC1CN([C@H]2CC[C@H]([C@@]3(C)Oc4c(Cl)cc(C(=O)NCc5c(SC)cc(C)[nH]c5=O)c(C)c4O3)CC2)C1 | – | RNA-seq, item: DTNA mouse homolog | mouse, HT-1376 xenograft, whole blood | dose not given | baseline: vehicle | log2 fold change | 0.219 |
| CCC(=O)N(C)c1ccc(Cl)c(Cl)c1 | GABA-gated chloride channel | radioligand binding | – | 10 µM | – | inhibition | < 10% |
| Cc1[nH]nc2c1N=C(c1ccccc1Cl)c1cnc(N3CCOCC3)cc1N2 | L-type calcium channel benzothiazepine site, rat | radioligand binding | – | 10 µM | – | inhibition | 27% |
| Nc1ncc(-c2cc(-c3cnn(CC(F)(F)F)c3)ncc2F)nc1C(=O)NC1CNCC(F)C1 (stereo not drawn) | FGFR2 | KINOMEscan | – | 1 µM | baseline: DMSO control | remaining binding | 80% |
| CN1CCCNC(=O)CCC(=O)NCCCN(C)CCCNc2cccc3c2C(=O)c2cccc(c2C3=O)NCCC1 | telomeric G-quadruplex DNA | DNA thermal stabilisation, CD melting | – | concentration not given, pH 7.4, together with: 100 mM NaCl | – | ΔTm | < 0.5 °C |
| Fc1ccc(Nc2nc(NC3CCCCC3)c3cc(C(F)(F)F)ccc3n2)cc1F | β2AR/β1AR TM2 chimera | β-arrestin2 recruitment, antagonist, BRET | – | – | baseline: isoprenaline maximal response | maximal inhibition | 1% |
| CC[C@H]1OC(=O)[C@H](C)[C@@H](OC(=O)Cc2cccc([N+](=O)[O-])c2)[C@H](C)[C@@H](O[C@@H]2O[C@H](C)C[C@H](N(C)C)[C@H]2O)[C@](C)(OC)C[C@@H](C)C(=O)[C@H](C)[C@@H](O)[C@]1(C)O | Escherichia coli ribosome | in vitro transcription-translation, inhibitor | – | – | – | IC50 | 180 nM |
| O[C@@H](COc1ccc2cc(Br)ccc2c1)Cn1ccnc1 | Trypanosoma cruzi | reporter mRNA translation, inhibitor, item: Renilla luciferase mRNA | cell-free extract | concentration not given, test 1 | baseline: positive over negative control | translation activity | 103% |
| C=CC(=O)Nc1cccc(Cn2ncc3cnc(Nc4cnn(CCOC)c4)nc32)c1 | BRAF human | binding, KINOMEscan | – | 100 nM | lower = stronger binding | percent of control | 98% |
| c1ccc(-c2n[nH]cc2-c2ccnc3ccccc23)nc1 | YPK1 (Candida albicans) | kinase binding, MIB/MS competition | Candida albicans lysate | 1 µM | baseline: DMSO | log2 fold change | -0.08 |
| C1=[N+]2CCCC[N+]3=Cc4ccc5[n]4[Au-]23[n]2c1ccc2-c1nc2ccccc2nc1-5.F[P-](F)(F)(F)(F)F | human ACTN3 291-bp linear dsDNA | high-resolution melt | – | 10.4 µM | – | melting temperature | 84.8 °C |
| CC(C)C[C@@H]1NC(=O)[C@H](Cc2ccc(O)cc2)NC(=O)[C@H](CCCNC(=N)N)NC(=O)[C@H](C)NC(=O)[C@H]([C@@H](C)O)NC(=O)[C@H](Cc2ccc(O)cc2)NC(=O)CSC[C@@H](C(N)=O)NC(=O)[C@H](CCCCN)NC(=O)[C@H](Cc2ccc(O)cc2)NC(=O)[C@H](Cc2c[nH]cn2)NC(=O)[C@H](CC(C)C)NC(=O)[C@H]([C@@H](C)O)NC(=O)CNC(=O)[C@H](CC(C)C)NC(=O)[C@H]([C@@H](C)O)NC1=O | HTT-HAP40 complex | differential scanning fluorimetry | – | up to 10 µM | – | ΔTm | no effect |
| O=C(Nc1cccc(C(=O)N2CCC(c3nc(-c4ccccc4)n[nH]3)CC2)c1)c1ccccc1 | FSP1 L323A | resorufin formation, inhibitor | – | together with: NADH, resazurin | – | IC50 | no inhibition |
| CC1(C)C[N+]2=Cc3ccc4[n]3[Au-]23[n]2c(ccc2-c2nc5ccccc5nc2-4)C=[N+]3C1.F[P-](F)(F)(F)(F)F | human ACTN3 291-bp linear dsDNA | high-resolution melt | – | 10.1 µM | – | melting temperature | 85 °C |
| CNS(=O)(=O)Nc1nccc(Cc2c(C)c3ccc(Oc4ncccc4F)cc3oc2=O)c1F | TYK-nu | cell viability, CellTiter-Glo | – | 7 days | – | IC50 | 4.92 nM |
| CNC(=O)C1CCCN(C(=O)C2CC3CCC2N3C(=O)[C@@H]2C[C@@H](O)CN2C(=O)NCc2cccc(Cl)c2F)C1 (mixture of isomers) | CYP2C19 (Homo sapiens, UniProt P33261) | enzyme activity, inhibitor, time-dependent inhibition | – | 0.206 µM, preincubated without NADPH | baseline: negative control | remaining activity | 83.3% |
| CCCC[C@H](NC(C)=O)C(=O)N[C@@H](CO)C(=O)N[C@H](C(=O)N1CCC[C@H]1C(=O)N[C@]1(C)CCCCCCC=CCCC[C@@](C)(C(=O)N[C@@H](Cc2ccccc2)C(=O)N[C@@H](CCCCN)C(=O)N[C@@H](CCCNC(=N)N)C(=O)N[C@@H](CC(C)C)C(=O)N[C@@H](CCC(N)=O)C(N)=O)NC(=O)[C@H](CCCNC(=N)N)NC(=O)[C@H](CCCC)NC(=O)[C@H](CC(C)C)NC(=O)[C@H](CCCNC(=N)N)NC(=O)[C@H](CCCNC(=N)N)NC(=O)[C@H](CCCNC(=N)N)NC1=O)[C@@H](C)O | proteinase K | LC-MS | – | 25 µM, 553.6 min, pH 7.4 | – | remaining peptide | 38.8% |
| Cc1ncsc1-c1ccc(C(C)NC(=O)C2CC(O)CN2C(=O)C(NC(=O)CCCCCCCCCCN2CCCC(Nc3ncc(Cl)c(Nc4ccccc4S(=O)(=O)C(C)C)n3)C2)C(C)(C)C)cc1 (stereo not drawn) | 22Rv1 | RNA-seq, item: ZNF525 mRNA | – | concentration not given | baseline: DMSO | log2 fold change | -1.12 |

For quick reference, copied from above:
| Compound | tested on | assay | system | setting | how to read | endpoint | value |
| --- | --- | --- | --- | --- | --- | --- | --- |
| C1=[N+]2CCCC[N+]3=Cc4ccc5[n]4[Au-]23[n]2c1ccc2-c1nc2ccccc2nc1-5.F[P-](F)(F)(F)(F)F | human ACTN3 291-bp linear dsDNA | high-resolution melt | – | 10.4 µM | – | melting temperature | 84.8 °C |
| c1ccc(-c2n[nH]cc2-c2ccnc3ccccc23)nc1 | YPK1 (Candida albicans) | kinase binding, MIB/MS competition | Candida albicans lysate | 1 µM | baseline: DMSO | log2 fold change | -0.08 |
